Published values from different studies.
Parts stem from different laboratories: compare values within a part only.

Series 1
Target: Sal-like protein 4, full length isoform B (SALL4, Homo sapiens, UniProt Q9UJQ4-2, residues 1-616)
Technique: universal PBM
Form: double-stranded DNA, one strand shown
Medium: in vitro
Concentration: not given
Setting: 8-mer, flanks averaged, mean of replicates
Reading: higher = stronger binding
Target sequence (chain): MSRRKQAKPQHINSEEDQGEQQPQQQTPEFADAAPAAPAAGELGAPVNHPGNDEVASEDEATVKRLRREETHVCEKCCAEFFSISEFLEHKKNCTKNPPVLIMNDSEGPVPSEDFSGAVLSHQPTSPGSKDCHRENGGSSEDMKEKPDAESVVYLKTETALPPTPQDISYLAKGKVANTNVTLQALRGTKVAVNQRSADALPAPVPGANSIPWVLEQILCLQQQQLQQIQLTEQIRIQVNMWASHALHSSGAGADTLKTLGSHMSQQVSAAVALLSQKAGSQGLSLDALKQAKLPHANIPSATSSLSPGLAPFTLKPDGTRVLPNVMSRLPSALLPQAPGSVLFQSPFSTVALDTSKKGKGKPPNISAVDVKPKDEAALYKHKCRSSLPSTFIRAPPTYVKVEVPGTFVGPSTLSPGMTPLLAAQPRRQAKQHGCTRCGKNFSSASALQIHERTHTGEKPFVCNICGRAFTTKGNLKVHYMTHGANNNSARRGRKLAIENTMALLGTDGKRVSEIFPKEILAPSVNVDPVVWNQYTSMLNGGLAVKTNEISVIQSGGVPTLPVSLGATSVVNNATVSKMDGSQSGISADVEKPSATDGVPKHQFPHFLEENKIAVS
The E-score of `ACTCTACT` is reported as 0.0651.
`GCCAGCCA` gave an E-score of -0.243.
`CCTGACGA` has an E-score of -0.0849.
`AGCTGATC` has an E-score of -0.173.
`CTATAGAA` gave an E-score of 0.262.
The E-score of `ACCGAAGT` is reported as -0.142.

Series 2
Target: Cyclic AMP-responsive element-binding protein 1, full length (CREB1, Homo sapiens, UniProt P16220, residues 1-327)
UniProt P16220, sequence (whole entry, looked up): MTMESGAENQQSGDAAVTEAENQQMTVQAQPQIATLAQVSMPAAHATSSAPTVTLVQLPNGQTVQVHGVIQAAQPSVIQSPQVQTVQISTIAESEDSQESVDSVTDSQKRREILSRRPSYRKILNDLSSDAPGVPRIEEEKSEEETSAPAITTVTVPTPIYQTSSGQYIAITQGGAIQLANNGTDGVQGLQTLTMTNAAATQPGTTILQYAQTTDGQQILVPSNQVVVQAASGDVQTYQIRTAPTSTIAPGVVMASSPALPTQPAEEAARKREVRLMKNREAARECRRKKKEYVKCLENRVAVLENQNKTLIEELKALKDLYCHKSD
Technique: protein-binding microarray
Form: hairpin DNA
Medium: in vitro
Concentration: not given
Setting: whole hairpin DNA, median over replicate spots
Baseline: not given
Reading: higher = stronger binding
The median fluorescence of `GAGGCCGCGTGACGTCAGCCTCCTGGCTGACGTCACGCGGCCTCACACTC (5mC at 36)` is reported as 22200 a.u.
`GAGGCCGGATGCCGTCAGCCTCCTGGCTGACGGCATCCGGCCTCACACTC (5mC at 12)` has a median fluorescence of 3060 a.u.
For `GAGGCCAGCTGACGTCAGCCTCCTGGCTGACGTCAGCTGGCCTCACACTC`, the median fluorescence was 12700 a.u.
`GAGGCCGGCTGACGGCAGCCTCCTGGCTGCCGTCAGCCGGCCTCACACTC (5mC at 30)` has a median fluorescence of 3180 a.u.
`GAGGCCGGATGAAGTCAGCCTCCTGGCTGACTTCATCCGGCCTCACACTC` gave a median fluorescence of 2760 a.u.

Series 3
Target: Histone acetyltransferase KAT6A, winged helix 2, GST fusion (KAT6A, Homo sapiens, UniProt Q92794, residues 85-181)
Technique: protein binding microarray
Form: double-stranded DNA, one strand shown
Medium: in vitro
Concentration: not given
Setting: 8-mer, flanks averaged, mean of 2 arrays, mostly near background
Baseline: not given
Reading: higher = stronger binding
Target sequence (chain): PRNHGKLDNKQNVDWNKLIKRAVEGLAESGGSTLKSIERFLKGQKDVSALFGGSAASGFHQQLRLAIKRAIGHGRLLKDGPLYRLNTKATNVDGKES
With `AAACAGTG` the E-score was -0.0407.
For `CCATTCTA`, the E-score was -0.0626.
`ATGCGCAG` has an E-score of 0.0171.
`GATTAGCC` gave an E-score of 0.068.
`AGAAACTA` gave an E-score of 0.0387.
`GAAGGCAA` has an E-score of 0.234.
`ATTCACTA` has an E-score of 0.0386.
With `TCCTAAAA` the E-score was 0.0842.

Other studies, line by line
`PhoQ, residues 284 288 289 292 302 303 SIHMAM` gave a fold induction of 10.8 (PhoP, residues 12 14 15 18 19 NMSFL (Escherichia coli, UniProt P23836); Sort-seq, measured: YFP reporter; E. coli; PhoQ-PhoP variant library, together with: 10 µM Mg2+; baseline: high Mg2+ state, higher = stronger signaling).

A few entries again (series 3):
For `CCATTCTA`, the E-score was -0.0626.
`GATTAGCC` gave an E-score of 0.068.
